Measurements from different studies.
Compare with care: the assays were run in different laboratories. ± marks the error that the study gave. In brackets after ≈: the same amount, converted by molar mass.

CCCCCOc1ccc(-c2cc(-c3ccc(C(=O)N[C@H]4C[C@@H](O)[C@@H](O)NC(=O)[C@@H]5[C@@H](O)[C@@H](C)CN5C(=O)[C@H]([C@H](O)CC(N)=O)NC(=O)[C@H]([C@H](O)[C@@H](O)c5ccc(O)c(OS(=O)(=O)O)c5)NC(=O)[C@@H]5C[C@@H](O)CN5C(=O)[C@H]([C@@H](C)O)NC4=O)cc3)no2)cc1
steady-state clearance (human paediatric patients 6 to sample C years, plasma; intravenous, 3 mg/kg once daily, day 7, geometric mean): 7 mL/min

CSCC[C@@H]1NC(=O)[C@H](CC(=O)O)NC(=O)CNC(=O)[C@H](CCCNC(=N)N)NC(=O)[C@H](C)NC(=O)[C@H](CCC(=O)O)NC(=O)[C@H](CCCNC(=N)N)NC(=O)[C@@H]2CSSC[C@@H]3NC(=O)[C@H](CO)NC(=O)[C@H]([C@@H](C)O)NC(=O)[C@@H]4CCCN4C(=O)[C@H](C)NC(=O)[C@H](Cc4c[nH]c5ccccc45)NC(=O)[C@H](CC(=O)O)NC(=O)CNC(=O)[C@H](CCCNC(=N)N)NC(=O)CNC(=O)[C@H](CCC(N)=O)NC(=O)[C@@H]4CCCN4C(=O)[C@@H](NC(=O)CNC(=O)C(C)F)CSSC[C@H](NC(=O)CNC(=O)[C@H](C)NC(=O)[C@H](CC(C)C)NC(=O)[C@H](CSSC[C@@H](C(=O)NCC(N)=O)NC(=O)[C@H]([C@@H](C)O)NC(=O)[C@H](CCCNC(=N)N)NC(=O)[C@@H]4CCCN4C1=O)NC(=O)[C@H](CC(=O)O)NC(=O)[C@H](CO)NC(=O)[C@H](CC(=O)O)NC(=O)[C@H](CCC(N)=O)NC(=O)[C@H](CO)NC3=O)C(=O)N[C@@H](C(C)C)C(=O)N2 (some centres unmarked) [fluorine-18 labelled]
tissue uptake (nude mice U-87 MG xenograft, tumor; intravenous, 0.5 h): 3.76 ± 0.59 %ID/g

[123I]c1cncc(OC[C@@H]2CCN2)c1
tissue/plasma ratio (SPECT; human, temporal lobe; intravenous bolus, 2.1 mCi; relative to: plasma): 10.4

COc1ccc2c(c1)[nH]c1c(C)nccc12
oral bioavailability (Sprague Dawley rat, plasma; oral, 60 mg/kg; relative to: intravenous 20 mg/kg): 29.2%

NC(=O)c1nc(F)c[nH]c1=O
solubility (UV-Vis spectrophotometry; supercritical CO2; 120 min, 308 K, 27 MPa, 913.69 kg/m^3): 1.33 mg/mL (≈ 8.5 mM)

O=C(NCCS)c1cccc(C(=O)NCCS)c1
plasma concentration (rat Sprague-Dawley male; intravenous, 1 mg/kg, 0.083 h): 0.522 µg/mL

O=C1Nc2cc3c(OS(=O)(=O)O)cccc3c3c4c(cc1c23)OCO4
urine concentration (Wistar rat, male, urine; subcutaneous, 2 mg of aristolochic acid I, 24 h collection): 0.15 µM

CN[C@@](C)(C[18F])C(=O)O
tissue uptake (SCID mouse SK-OV-3 xenograft, spleen; 15 min, post injection): 14 ± 0.7 %ID/g

CCCCCOc1ccc(-c2cc(-c3ccc(C(=O)N[C@H]4C[C@@H](O)[C@@H](O)NC(=O)[C@@H]5[C@@H](O)[C@@H](C)CN5C(=O)[C@H]([C@H](O)CC(N)=O)NC(=O)[C@H]([C@H](O)[C@@H](O)c5ccc(O)c(OS(=O)(=O)O)c5)NC(=O)[C@@H]5C[C@@H](O)CN5C(=O)[C@H]([C@@H](C)O)NC4=O)cc3)no2)cc1
AUC(0-24) (infants below 1000 g, plasma; intravenous infusion, 10 mg/kg/day, day 4, 1 h infusion): 308 µg·h/mL

C/C=C1/C[C@@H](C)[C@](O)(CO)C(=O)OCC2=CC[N@@+]3([O-])CC[C@@H](OC1=O)[C@@H]23
blood-to-plasma ratio (human whole blood; 1000 ng/mL, 60 min, 37 °C): 0.736

Cn1cc(C2=C(c3cn(C4CCN(Cc5ccccn5)CC4)c4ccccc34)C(=O)NC2=O)c2ccccc21
AUC(0-tau) at steady state (human, cancer patients, plasma; oral, 250 mg once daily, cycle 1 day 22, added: erlotinib 150 mg daily): 6.59 µM·h

Excerpt of the above:
[123I]c1cncc(OC[C@@H]2CCN2)c1
tissue/plasma ratio (SPECT; human, temporal lobe; intravenous bolus, 2.1 mCi; relative to: plasma): 10.4
